Assay results from different studies.
Values joined by “and” are separate records of one study, mostly repeats; a detail may differ. ± marks the error that the study gave.
Genome polyprotein NS3 helicase domain: Genome polyprotein, NS3 helicase domain (Hepatitis C virus genotype 1b, UniProt Q9WMX2)
WD repeat-containing protein 91 WD40 domain, residues 392–747: WD repeat-containing protein 91, WD40 domain, residues 392–747 (Homo sapiens, UniProt A4D1P6)
Chain of UniProt A4D1P6 (whole entry, looked up): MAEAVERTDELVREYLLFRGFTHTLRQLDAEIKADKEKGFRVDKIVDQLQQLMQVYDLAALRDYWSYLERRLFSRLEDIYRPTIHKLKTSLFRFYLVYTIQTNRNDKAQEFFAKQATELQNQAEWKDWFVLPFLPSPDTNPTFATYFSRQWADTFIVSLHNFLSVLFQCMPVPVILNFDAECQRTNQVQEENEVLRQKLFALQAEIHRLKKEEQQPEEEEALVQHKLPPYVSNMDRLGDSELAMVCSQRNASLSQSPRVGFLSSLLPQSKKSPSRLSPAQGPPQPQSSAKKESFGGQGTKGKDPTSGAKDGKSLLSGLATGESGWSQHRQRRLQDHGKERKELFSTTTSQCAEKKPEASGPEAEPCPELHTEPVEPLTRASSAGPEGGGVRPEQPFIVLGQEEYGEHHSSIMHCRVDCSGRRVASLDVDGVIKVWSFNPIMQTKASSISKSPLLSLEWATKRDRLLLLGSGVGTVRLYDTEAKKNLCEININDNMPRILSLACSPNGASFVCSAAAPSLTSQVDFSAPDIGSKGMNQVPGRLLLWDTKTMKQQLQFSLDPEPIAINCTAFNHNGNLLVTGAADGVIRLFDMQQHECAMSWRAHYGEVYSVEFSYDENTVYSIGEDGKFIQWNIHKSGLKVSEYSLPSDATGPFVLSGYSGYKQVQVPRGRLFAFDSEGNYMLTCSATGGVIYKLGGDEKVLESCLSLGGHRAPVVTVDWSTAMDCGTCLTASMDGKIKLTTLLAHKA
ESR1: Estrogen receptor (ESR1, Homo sapiens, UniProt P03372)
Chain of UniProt P03372 (whole entry, looked up): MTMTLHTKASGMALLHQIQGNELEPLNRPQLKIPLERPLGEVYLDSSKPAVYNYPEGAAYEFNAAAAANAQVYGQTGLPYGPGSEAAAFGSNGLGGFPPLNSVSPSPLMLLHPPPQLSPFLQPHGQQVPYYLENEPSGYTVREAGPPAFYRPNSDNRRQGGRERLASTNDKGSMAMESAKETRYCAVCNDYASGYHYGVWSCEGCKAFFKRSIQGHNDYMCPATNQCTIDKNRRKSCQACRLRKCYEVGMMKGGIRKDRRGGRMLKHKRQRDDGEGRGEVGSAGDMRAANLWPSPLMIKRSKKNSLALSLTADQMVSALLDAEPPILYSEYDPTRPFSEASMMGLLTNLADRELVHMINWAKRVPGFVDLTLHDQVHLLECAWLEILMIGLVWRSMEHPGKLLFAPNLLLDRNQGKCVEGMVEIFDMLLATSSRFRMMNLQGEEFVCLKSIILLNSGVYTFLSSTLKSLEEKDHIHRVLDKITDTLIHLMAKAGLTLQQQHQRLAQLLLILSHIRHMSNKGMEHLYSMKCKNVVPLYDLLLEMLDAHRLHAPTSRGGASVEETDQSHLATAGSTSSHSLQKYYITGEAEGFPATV
Nuclear receptor subfamily 4 group A member 3 ligand-binding domain: Nuclear receptor subfamily 4 group A member 3, ligand-binding domain (Homo sapiens, UniProt Q92570)
Chain of UniProt Q92570 (whole entry, looked up): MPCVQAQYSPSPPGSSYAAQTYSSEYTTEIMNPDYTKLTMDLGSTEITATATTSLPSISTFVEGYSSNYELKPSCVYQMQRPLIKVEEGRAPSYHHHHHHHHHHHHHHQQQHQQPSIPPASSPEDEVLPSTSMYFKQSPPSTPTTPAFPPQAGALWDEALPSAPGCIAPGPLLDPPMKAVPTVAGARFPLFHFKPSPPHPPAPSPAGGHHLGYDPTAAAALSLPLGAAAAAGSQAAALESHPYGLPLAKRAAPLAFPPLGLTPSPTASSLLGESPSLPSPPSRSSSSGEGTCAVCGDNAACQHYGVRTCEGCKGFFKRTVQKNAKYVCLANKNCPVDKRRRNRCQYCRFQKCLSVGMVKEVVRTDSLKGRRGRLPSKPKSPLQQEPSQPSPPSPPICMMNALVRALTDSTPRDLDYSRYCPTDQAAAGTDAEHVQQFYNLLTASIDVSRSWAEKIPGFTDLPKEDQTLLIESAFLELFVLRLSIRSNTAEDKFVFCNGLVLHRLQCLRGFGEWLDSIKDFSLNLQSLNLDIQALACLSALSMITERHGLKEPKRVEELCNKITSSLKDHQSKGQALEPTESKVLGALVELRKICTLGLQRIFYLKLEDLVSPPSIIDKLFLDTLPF
NAA80: N-alpha-acetyltransferase 80 (NAA80, Homo sapiens, UniProt Q93015)
Chain of UniProt P51575 (whole entry, looked up): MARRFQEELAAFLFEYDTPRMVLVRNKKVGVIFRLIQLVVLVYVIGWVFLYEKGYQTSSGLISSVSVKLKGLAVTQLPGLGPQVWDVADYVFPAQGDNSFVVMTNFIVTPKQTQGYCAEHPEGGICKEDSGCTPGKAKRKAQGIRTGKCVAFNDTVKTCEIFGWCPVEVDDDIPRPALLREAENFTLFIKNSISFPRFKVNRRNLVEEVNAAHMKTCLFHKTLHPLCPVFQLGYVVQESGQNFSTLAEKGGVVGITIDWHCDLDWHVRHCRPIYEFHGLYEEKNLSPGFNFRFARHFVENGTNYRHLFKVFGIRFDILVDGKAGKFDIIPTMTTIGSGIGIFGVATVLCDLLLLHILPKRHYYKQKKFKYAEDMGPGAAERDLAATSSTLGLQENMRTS
Chain of UniProt Q16774 (whole entry, looked up): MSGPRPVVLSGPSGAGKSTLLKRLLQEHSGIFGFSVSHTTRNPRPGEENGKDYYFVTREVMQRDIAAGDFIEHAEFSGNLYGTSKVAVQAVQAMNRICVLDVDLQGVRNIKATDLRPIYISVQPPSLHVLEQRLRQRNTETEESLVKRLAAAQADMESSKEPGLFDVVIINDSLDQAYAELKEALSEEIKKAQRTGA
Chain of UniProt Q93015 (whole entry, looked up): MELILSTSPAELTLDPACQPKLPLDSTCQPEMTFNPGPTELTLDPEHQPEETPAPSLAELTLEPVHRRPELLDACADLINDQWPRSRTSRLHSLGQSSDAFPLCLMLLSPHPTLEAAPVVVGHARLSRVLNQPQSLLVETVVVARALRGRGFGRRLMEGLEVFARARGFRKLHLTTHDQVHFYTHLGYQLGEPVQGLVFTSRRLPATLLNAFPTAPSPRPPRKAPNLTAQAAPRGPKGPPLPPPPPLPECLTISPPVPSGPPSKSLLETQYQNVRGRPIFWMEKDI
Chain of UniProt P42262 (whole entry, looked up): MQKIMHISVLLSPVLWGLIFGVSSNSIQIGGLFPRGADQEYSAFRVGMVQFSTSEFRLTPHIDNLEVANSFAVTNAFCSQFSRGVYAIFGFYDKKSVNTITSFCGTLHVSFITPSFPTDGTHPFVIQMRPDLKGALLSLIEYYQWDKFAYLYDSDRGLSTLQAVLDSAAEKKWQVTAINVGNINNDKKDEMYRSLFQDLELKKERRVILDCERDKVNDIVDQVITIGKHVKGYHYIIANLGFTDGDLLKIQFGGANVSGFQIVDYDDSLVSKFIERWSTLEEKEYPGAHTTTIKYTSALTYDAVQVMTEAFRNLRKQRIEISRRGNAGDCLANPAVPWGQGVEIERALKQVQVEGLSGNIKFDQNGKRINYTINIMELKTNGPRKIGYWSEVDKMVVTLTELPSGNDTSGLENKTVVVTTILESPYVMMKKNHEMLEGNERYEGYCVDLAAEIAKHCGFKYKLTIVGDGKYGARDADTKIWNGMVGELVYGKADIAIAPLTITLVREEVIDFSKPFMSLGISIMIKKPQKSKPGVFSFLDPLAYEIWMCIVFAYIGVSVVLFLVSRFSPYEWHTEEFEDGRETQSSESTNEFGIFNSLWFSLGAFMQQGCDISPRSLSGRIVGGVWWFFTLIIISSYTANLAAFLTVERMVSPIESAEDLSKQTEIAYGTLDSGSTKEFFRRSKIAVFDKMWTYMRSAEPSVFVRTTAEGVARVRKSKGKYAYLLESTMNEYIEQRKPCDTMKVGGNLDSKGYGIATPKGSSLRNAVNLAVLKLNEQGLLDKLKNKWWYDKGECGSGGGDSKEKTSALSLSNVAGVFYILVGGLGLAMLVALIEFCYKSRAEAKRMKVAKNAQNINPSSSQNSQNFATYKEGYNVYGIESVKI
Chain of UniProt P51449 (whole entry, looked up): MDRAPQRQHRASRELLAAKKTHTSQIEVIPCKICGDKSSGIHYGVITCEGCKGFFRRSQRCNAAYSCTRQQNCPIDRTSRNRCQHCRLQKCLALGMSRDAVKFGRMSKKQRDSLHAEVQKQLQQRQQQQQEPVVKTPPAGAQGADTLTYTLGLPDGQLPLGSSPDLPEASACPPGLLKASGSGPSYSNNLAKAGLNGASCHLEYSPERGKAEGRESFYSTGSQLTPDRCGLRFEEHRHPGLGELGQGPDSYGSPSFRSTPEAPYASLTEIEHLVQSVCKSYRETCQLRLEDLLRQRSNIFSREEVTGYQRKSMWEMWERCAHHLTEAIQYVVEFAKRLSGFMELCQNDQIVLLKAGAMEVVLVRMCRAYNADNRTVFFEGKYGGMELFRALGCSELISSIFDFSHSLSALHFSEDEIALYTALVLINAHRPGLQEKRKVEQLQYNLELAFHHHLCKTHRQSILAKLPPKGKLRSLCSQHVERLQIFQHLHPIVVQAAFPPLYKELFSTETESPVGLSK
Chain of UniProt Q99619 (whole entry, looked up): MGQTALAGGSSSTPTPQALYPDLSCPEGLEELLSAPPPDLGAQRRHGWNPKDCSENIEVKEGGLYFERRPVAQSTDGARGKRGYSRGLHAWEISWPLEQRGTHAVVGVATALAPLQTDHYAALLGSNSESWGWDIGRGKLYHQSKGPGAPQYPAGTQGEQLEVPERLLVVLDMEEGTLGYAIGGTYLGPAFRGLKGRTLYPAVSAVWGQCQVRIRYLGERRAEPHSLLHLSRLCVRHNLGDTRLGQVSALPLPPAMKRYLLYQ
Chain of UniProt P31947 (whole entry, looked up): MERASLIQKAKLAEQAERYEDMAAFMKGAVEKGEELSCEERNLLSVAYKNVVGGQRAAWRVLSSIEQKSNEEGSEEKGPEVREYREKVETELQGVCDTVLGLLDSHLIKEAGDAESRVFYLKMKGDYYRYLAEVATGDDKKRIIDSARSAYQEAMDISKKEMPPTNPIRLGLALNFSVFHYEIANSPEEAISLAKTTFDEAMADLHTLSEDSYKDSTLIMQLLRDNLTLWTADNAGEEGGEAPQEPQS

| Compound | target | test | system | setting | how to read | measurement | value |
| --- | --- | --- | --- | --- | --- | --- | --- |
| COc1ccc2c(c1)CC[C@@H]1[C@@H]2CC[C@]2(C)[C@@H](NCCCCCCN3C(=O)C=CC3=O)CC[C@@H]12 | Genome polyprotein NS3 helicase domain | DNA binding, inhibitor | hepatitis C virus | 100 µM, added: Cy5-dT15 DNA | – | inhibition | 5% |
| N#CC1CCN(C(=O)c2ccc(Cn3cc(-c4ccc5ncccc5c4)nn3)cc2)CC1 | WD repeat-containing protein 91 WD40 domain, residues 392–747 | binding, SPR single-concentration screen | – | 45 µM | – | SPR response | 2.5 RU and 2.2 RU |
| COc1cc(-c2oc3cc(O)cc(O)c3c(=O)c2O)ccc1O | ESR1 | array formation | PRL-HeLa | – | baseline: EC50 ERβ over EC50 ERα | selectivity ratio | 0.55 |
| CC[C@H](C)[C@H](NC(=O)[C@H](CCCCN)NC(=O)CNC(=O)[C@@H](NC(=O)[C@@H](NC(=O)[C@H](CCSC)NC(=O)[C@H](Cc1c[nH]cn1)NC(=O)CN)[C@@H](C)O)C(C)C)C(=O)N[C@@H](Cc1ccc(O)cc1)C(=O)N[C@@H](C)C(=O)N[C@@H](C)C(=O)N[C@@H](C)C(=O)N[C@@H](CCSC)C(=O)N[C@H](C(=O)N[C@@H](CCSC)C(=O)N[C@@H](CCC(=O)O)C(=O)N[C@@H](Cc1ccc(O)cc1)C(=O)N[C@@H](Cc1ccc(O)cc1)C(=O)N[C@@H](CCCNC(=N)N)C(=O)N[C@@H](CCC(N)=O)C(=O)N[C@@H](CO)C(=O)N[C@@H](CCCCN)C(=O)N[C@@H](C)C(=O)N[C@@H](CCCCN)C(=O)N[C@@H](CCCCN)C(=O)N[C@@H](CC(C)C)C(=O)N[C@@H](CCC(N)=O)C(=O)N[C@@H](C)C(=O)N[C@@H](CCSC)C(=O)N[C@@H](CCCNC(=N)N)C(=O)O)[C@@H](C)CC | Calmodulin-1, Ca2+-bound N-lobe (CALM1, Homo sapiens, UniProt P0DP23) | binding, isothermal titration calorimetry | – | pH 7.4, 15 °C, N-lobe, CaV2.1 IQ domain, added: Ca2+ | – | ΔS | 19.7 ± 0.9 cal/mol/K |
| Nc1ncnc2c1ncn2[C@@H]1O[C@H](COP(=O)(O)CP(=O)(O)OP(=O)(O)O)[C@@H](O)[C@H]1O | P2X purinoceptor 1 (P2RX1, Homo sapiens, UniProt P51575) | saturation binding | HEK293 | 130 nM | – | specific binding | 6030 CCPM and 8710 CCPM and 10900 CCPM and 10200 CCPM and 5410 CCPM |
| CCN1CCN(c2cc(N3CCN(CC)CC3)nc(NCCNc3ccnc4cc(Cl)ccc34)n2)CC1 | Nuclear receptor subfamily 4 group A member 3 ligand-binding domain | reporter gene, Gal4 hybrid reporter | – | 20 µM | baseline: vehicle | activation | 2.94 fold |
| CSCC[C@H](NC(=O)[C@@H]1CCCN1C(C)=O)C(=O)N[C@@H](C)C(=O)N[C@@H](CO)C(=O)N[C@@H](CC(=O)O)C(=O)N1CCC[C@H]1C(=O)N[C@@H](CC(C)C)C(=O)NCC(=O)N[C@H](C(=O)N[C@H](C(=O)N[C@@H](CCCNC(=N)N)C(=O)N1CCC[C@H]1C(=O)N[C@@H](CCCNC(=N)N)C(=O)N[C@@H](C)C(=O)N[C@@H](CCCNC(=N)N)C(=O)N[C@@H](C)C(=O)NCCCC[C@H](NC(=O)[C@H](C)NC(=O)[C@H](CCCNC(=N)N)NC(=O)[C@H](C)NC(=O)[C@H](CCCNC(=N)N)NC(=O)[C@@H]1CCCN1C(=O)[C@H](CCCNC(=N)N)NC(=O)[C@@H](NC(=O)[C@@H](NC(=O)CNC(=O)[C@H](CC(C)C)NC(=O)[C@@H]1CCCN1C(=O)[C@H](CC(=O)O)NC(=O)[C@H](CO)NC(=O)[C@H](C)NC(=O)[C@H](CCSC)NC(=O)[C@@H]1CCCN1C(C)=O)C(C)C)C(C)C)C(=O)NCCC(=O)N[C@@H](CCCCNC(=O)CCOCCOCCOCCOCCNC(=O)CCCC[C@@H]1SC[C@@H]2NC(=O)N[C@@H]21)C(N)=O)C(C)C)C(C)C | antibody 12CA5 | biolayer interferometry | – | concentration not given, added: 12CA5 7.8-1000 nM | – | binding | no binding |
| COc1cc(/C=C2\CCC/C(=C\c3ccc(O)c(OC)c3)C2=O)ccc1O | haemin | isothermal titration calorimetry | – | concentration not given, pH 7.4, 37 °C | – | binding stoichiometry | 0.42 ± 0.01 |
| O=P(O)(O)O[C@@H]1[C@@H](OP(=O)(O)O)[C@H](OP(=O)(O)O)[C@H](O)[C@H](OP(=O)(O)O)[C@H]1OP(=O)(O)O | HDAC3 (Homo sapiens, UniProt O15379) | deacetylase activity, activator, fluorogenic | – | – | – | activation concentration | ~10 nM |
| N#Cc1cccc(OCc2cn(-c3ccc(C(=O)N4CCC(C#N)CC4)cc3)nn2)c1 | WD repeat-containing protein 91, residues 392–747 (Homo sapiens, UniProt A4D1P6) | SPR dose-response titration | – | concentration not given, 1:1 binding model | – | binding | 51% and 47% |
| CN1CCN(c2cc(-c3ccncc3)c(-c3ccc4ccccc4c3)nn2)CC1 | EDNRA (Homo sapiens, UniProt P25101) | agonist, FLIPR | – | 12.5 µM | – | activation | -8.1% |
| CCCN1CC(Oc2ccc([C@@H]3c4[nH]c5ccccc5c4C[C@@H](C)N3CC(C)(C)F)cc2)C1 | ESR1 | alkaline phosphatase, antagonist | Ishikawa | 72 h, added: estradiol 500 pM | – | Emax | 98% |
| O=C(O)c1ccccc1Nc1ccccc1 | Genome polyprotein NS3 helicase domain | DNA binding, inhibitor | hepatitis C virus | 100 µM, added: Cy5-dT15 DNA | – | inhibition | 0% |
| CC(C)NCC(O)COc1cccc2ccccc12 (stereo not drawn) | Glutamate receptor 2 (Homo sapiens, UniProt P42262) | ion current, agonist, SyncroPatch patch clamp | HEK293 | 30 µM | – | activation | 6% |
| CC1CCCN(C(=O)c2cc3ncccn3n2)C1 (stereo not drawn) | Transducin-like enhancer protein 4 (TLE4, Homo sapiens, UniProt Q04727) | binding, affinity selection mass spectrometry | – | – | baseline: other proteins in batch | log fold enrichment | 0.0609 |
| Cc1cc(N)c2ccccc2[n+]1CCCCCCCCCC[n+]1c(C)cc(N)c2ccccc21.[Cl-].[Cl-] | Genome polyprotein NS3 helicase domain | DNA binding, inhibitor | hepatitis C virus | 100 µM, added: Cy5-dT15 DNA | – | inhibition | 2% |
| O=S(=O)(c1ccccc1Cl)N1CCc2ccc(OCc3c(F)cccc3Cl)cc21 | RORC (Homo sapiens, UniProt P51449) | binding, SPA | – | 10 µM, added: 3H-T0901317 | – | displacement | 75% |
| N#CCCN(C(=O)CCl)c1ccc2c(c1)OCCO2 | 14-3-3 protein sigma, with ERα phosphopeptide (SFN, Homo sapiens, UniProt P31947) | binding, fluorescence polarization | – | covalent ligand screen, added: phosphorylated ERalpha peptide | baseline: control | FP signal | 94.6% |

| Compound | target | test | system | setting | how to read | measurement | value |
| --- | --- | --- | --- | --- | --- | --- | --- |
| [Cl-].[K+] | GUK1 (Homo sapiens, UniProt Q16774) | enzyme activity, NADH-coupled | – | 1.875 mM | – | reaction velocity | 0.04 µM/s and 0.0309 µM/s and 0.0286 µM/s |
| O=c1nc(SCc2cc(F)cc(C(F)(F)F)c2)nc(SCc2ccc3nc(Cl)ccc3c2)[nH]1 | TOP2A (Homo sapiens, UniProt P11388) | DNA relaxation | – | 31.25 µM, replicate 2 | – | relaxed DNA | 92.2% |
| CN(C)c1nc(N(C)C)nc(N(C)C)n1 | Genome polyprotein NS3 helicase domain | DNA binding, inhibitor | hepatitis C virus | 100 µM, added: Cy5-dT15 DNA | – | inhibition | 0% |
| CCOC(=O)CCCN | NAA80 | substrate, DTNB | – | 2 mM, 30 min, 37 °C, added: acetyl-CoA 500 µM | – | product formation | 0.66 µM |
| C1=C/COCc2cc(ccc2OCCN2CCCC2)Nc2nccc(n2)-c2cccc(c2)COC/1 | WNK1 (Homo sapiens, UniProt Q9H4A3) | – | – | concentration not given | baseline: DMSO control | remaining binding | 81% |
| C[C@]12CCC(=O)C=C1CC[C@@H]1[C@@H]2C(=O)C[C@@]2(C)[C@H]1CC[C@]2(O)C(=O)CO | Genome polyprotein NS3 helicase domain | DNA binding, inhibitor | hepatitis C virus | 100 µM, added: Cy5-dT15 DNA | – | inhibition | 1% |
| CN(CC(=O)O)C(=N)N | NAA80 | substrate, DTNB | – | 2 mM, 30 min, 37 °C, added: acetyl-CoA 500 µM | – | product formation | -1.05 µM |
| COc1ccc(-c2cc(=O)c3c(O)c(OC)c(OC)c(OC)c3o2)cc1OC | ESR1 | array formation | PRL-HeLa | – | baseline: EC50 ERβ over EC50 ERα | selectivity ratio | 0.655 |
| CCCCCCCC(=O)c1cc(OC)c(OC)c(OC)c1CC(=O)OCC | Nuclear receptor subfamily 4 group A member 3 ligand-binding domain | reporter gene, Gal4 hybrid reporter | – | 10 µM | baseline: vehicle | activation | 0.91 fold |
| CN(C)CCC(c1ccc(Br)cc1)c1ccccn1.O=C(O)/C=C\C(=O)O (racemic) | Genome polyprotein NS3 helicase domain | DNA binding, inhibitor | hepatitis C virus | 100 µM, added: Cy5-dT15 DNA | – | inhibition | 0% |
| CC[C@@H]1[C@H](F)C(=O)N[C@@H]1COc1nccc2cc(C(N)=O)c(OC)cc12 | MAP2K4 (Homo sapiens, UniProt P45985) | ATP-site probe binding, ActivX profiling | THP-1 cell lysate | 0.04 mM, Lys2 site | – | inhibition | 8% |
| O=C(O)/C=C/c1ccc(O)c(O)c1 | Genome polyprotein NS3 helicase domain | DNA binding, inhibitor | hepatitis C virus | 100 µM, added: Cy5-dT15 DNA | – | inhibition | 0% |
| N#CC1CCN(C(=O)c2ccc(SCc3cn4ccccc4n3)cc2)CC1 | WD repeat-containing protein 91 WD40 domain, residues 392–747 | SPR | – | 45 µM | – | binding | -17% and -2% |
| Cc1ccc(NC(=O)/C=C/c2cccs2)cc1 | Voltage-dependent N-type calcium channel subunit alpha-1B (Homo sapiens, UniProt Q00975) | potentiator | HEK293T | concentration not given | – | potentiation | inactive |
| CN1C(=O)COc2c(C(=O)NC3CN4CCC3CC4)cc(Cl)cc21 (stereo not drawn) | ACHE (Homo sapiens, UniProt P22303) | – | – | – | baseline: IC50 over human plasma Cmax | IC50/Cmax ratio | < 10 |
| CC1(C)CC2(C)OC(=O)NC2(C)c2ccccc21 (stereo not drawn) | SPRY domain-containing SOCS box protein 2, SPRY domain (Homo sapiens, UniProt Q99619) | binding, affinity selection mass spectrometry | – | – | baseline: other proteins in batch | fold enrichment | 1.1 |
| COC(=O)C1=C(C)NC(C)=C(C(=O)OCCN(C)Cc2ccccc2)C1c1cccc([N+](=O)[O-])c1 (stereo not drawn) | Genome polyprotein NS3 helicase domain | DNA binding, inhibitor | hepatitis C virus | 100 µM, added: Cy5-dT15 DNA | – | inhibition | 3% |
| Nc1ccn([C@H]2C[C@H](O)[C@@H](COP(=O)(O)OP(=O)(O)OP(=O)(O)O)O2)c(=O)n1 | Genome polyprotein, NS5B (Hepatitis C virus genotype 1b, UniProt Q9WMX2) | nucleotide incorporation, substrate | – | – | – | Vmax | 0.72 fraction per time |

For quick reference, copied from above:
| Compound | target | test | system | setting | how to read | measurement | value |
| --- | --- | --- | --- | --- | --- | --- | --- |
| C[C@]12CCC(=O)C=C1CC[C@@H]1[C@@H]2C(=O)C[C@@]2(C)[C@H]1CC[C@]2(O)C(=O)CO | Genome polyprotein NS3 helicase domain | DNA binding, inhibitor | hepatitis C virus | 100 µM, added: Cy5-dT15 DNA | – | inhibition | 1% |
| CN(CC(=O)O)C(=N)N | NAA80 | substrate, DTNB | – | 2 mM, 30 min, 37 °C, added: acetyl-CoA 500 µM | – | product formation | -1.05 µM |
| COc1ccc(-c2cc(=O)c3c(O)c(OC)c(OC)c(OC)c3o2)cc1OC | ESR1 | array formation | PRL-HeLa | – | baseline: EC50 ERβ over EC50 ERα | selectivity ratio | 0.655 |
| CCCCCCCC(=O)c1cc(OC)c(OC)c(OC)c1CC(=O)OCC | Nuclear receptor subfamily 4 group A member 3 ligand-binding domain | reporter gene, Gal4 hybrid reporter | – | 10 µM | baseline: vehicle | activation | 0.91 fold |
